Results collected from several papers.
Protocols differ between the studies behind these lines. Values joined by “and” are separate records of one study, mostly repeats; a detail may differ.

The EC50 of `COc1cnc2cccc(N3CCc4c(cc(Cn5ccnc5C)cc4-c4cn(C)nc4C(F)(F)F)C3=O)c2c1` is reported as over 30000 nM (BICR16; cell growth; 120 h).
Under “T cell proliferation”, `O=c1ccn([C@@H]2O[C@H](CO)[C@@H](O)[C@H]2O)c(=O)[nH]1` is recorded as 73.9% and 50.9% and 67.5% and 59% and 55.1% (activated human T cells; human; 1 µM).
`Cn1cc(-c2ccc(-c3cncc(Cl)c3N3CCC4(CCNC4=O)CC3)cc2)cn1`: “log2 fold change” -1.16 (COLO 205; gene expression, microarray, measured: NFE2L2 mRNA; concentration not given, 6 h; reference: untreated cells).
`CCn1cc(-c2cc(Cn3ccnc3)cc3c2CCN([C@H](c2cc(OC)ccn2)C2CC2)C3=O)c(C(F)(F)F)n1` gave an EC50 of 1840 nM (COLO-741; cell growth, inhibitor; 120 h).
The GI50 of `CC1(C)CCC(CN2CCN(c3ccc(C(=O)NS(=O)(=O)c4ccc(NCC5CCOCC5)c([N+](=O)[O-])c4)c(Oc4cnc5[nH]ccc5c4)c3)CC2)=C(c2ccc(Cl)cc2)C1` is reported as over 4000 nM (MOLM-13 resistant to compound; cell growth).
Under “normalized enrichment score”, `O=c1[nH]nc(OCCCc2ccc(Cl)cc2)c(NCc2cccnc2)c1Br` is recorded as -1.19 (HEK-293T; RNA-seq GSEA, measured: HALLMARK_ESTROGEN_RESPONSE_EARLY; concentration not given; direction not given).
The sarcomere length of `CC(C)NCC(O)c1ccc(O)c(O)c1` (stereo not shown) is reported as 1.73 µm (mouse ventricular cardiomyocytes; dose not given, 0.199 s).
With `O=C(NCC1CCOCC1)c1ccc(C2CCCCC2)cc1` the hepatic clearance was 48 mL/min/kg (liver microsome stability; rat liver microsomes; 1 µM).
With `O=C(/C=C/C=C/C=C/C1CCCCC1)NC1=C[C@@](O)(/C=C/C=C/C=C/C(=O)NC2=C(O)CCC2=O)[C@@H]2O[C@@H]2C1=O` the GI50 was 13900 nM (Li-7; cell growth, CellTiter-Glo; 78 h).
With `CCn1cc(-c2cc(Cn3ccoc3=N)cc3c2CCN([C@@H](C)c2cc(OC)ccn2)C3=O)c(C(F)(F)F)n1` the EC50 was 55.7 nM (BICR16; cell growth; 120 h).
`Nc1ncnc2nc(-c3ccc(N4CCOCC4)nc3)cc(-c3cccc(Br)c3)c12`: “T cell proliferation” 96.9% and 93.2% and 95% (activated human T cells; human; 316 nM).
`O=C(NCCN1CCCC1=O)c1ccc([C@H]2[C@@H](F)[C@@H](F)C[C@@H](F)[C@H]2F)cc1` has a hepatic clearance of 14 mL/min/kg (liver microsome stability; rat liver microsomes; 1 µM).
For `Nc1cccc2c1C(=O)N(C1CCC(=O)NC1=O)C2=O` (stereo not shown), the viability was 20% and 12% (MM1.S resistant to compound; XTT; 3 µM).

Excerpt of the above:
`Nc1ncnc2nc(-c3ccc(N4CCOCC4)nc3)cc(-c3cccc(Br)c3)c12`: “T cell proliferation” 96.9% and 93.2% and 95% (activated human T cells; human; 316 nM).
